Results of several laboratories.
Protocols differ between the studies behind these lines. Several values in a cell are separate wells, animals, samples, runs or records. In brackets after ≈: the same amount, converted by molar mass.
Organism: Staphylococcus aureus

Compound	test	test system	conditions	how to read	measurement	value
N=C(N)NCCC[C@H](NC(=O)[C@H](Cc1c[nH]c2ccccc12)NC(=O)[C@H](CCCNC(=N)N)NC(=O)[C@H](CCCNC(=N)N)NC(=O)[C@@H]1CCCN1C(=O)[C@H](CCCCN)NC(=O)[C@@H](N)CCCNC(=N)N)C(=O)N[C@@H](Cc1c[nH]c2ccccc12)C(=O)N[C@@H](Cc1c[nH]c2ccccc12)C(=O)N1CCC[C@H]1C(=O)N[C@@H](CCCCN)C(=O)N[C@@H](CCCNC(=N)N)C(=O)N1CCC[C@H]1C(=O)O		09057, female BALB/c mice, sepsis, lung	intraperitoneal, 20 mg/kg		log bacterial load	5.53 log(CFU/g) and 5.55 log(CFU/g) and 6.41 log(CFU/g) and 5.83 log(CFU/g) and 6.65 log(CFU/g) and 7.07 log(CFU/g)
CC1=C[C@@H](C)[C@H]2[C@@H]3C(=O)C(Cl)(Cl)C(=O)[C@H](C)C(=O)O[C@@H](C)/C=C/C=C\[C@@H](C)[C@@H]3C=C[C@@H]2C1		Newman mutant MT2		relative to: parent strain	MIC fold shift	16
c1ccc(CCNC2CCCc3c2[nH]c2ccc(C4CCCCC4)cc32)cc1 (centres unmarked)	broth microdilution	SG511 daptomycin-resistant			MIC	2 µg/mL (≈ 5.37 µM)
C=C(NC(=O)c1csc(-c2nc3c(cc2O)-c2nc(cs2)C(=O)NC(C(C)O)C(=O)NC(=C(C)OC)c2nc(cs2)C(=O)NC2c4nc(cs4)C(=O)NC(COC(=O)c4c5c6c(cccc6n4O)COC(=O)C(OC4CC(C)(O)C(N(C)C)C(C)O4)C2OC5)c2nc-3cs2)n1)C(N)=O (centres unmarked)		MRSA strain 4, vancomycin-induced	20 generations		MIC	0.0156 µg/mL (≈ 0.0109 µM)
CC[C@H](C)[C@@H]1NC(=O)[C@@H]([C@@H](C)O)NC(=O)CNC(=O)[C@H](CC(=O)O)NC(=O)CNC(=O)[C@H](CC(=O)O)NC(=O)CNC(=O)[C@H]2CCCCN2C(=O)[C@@H](NC(=O)[C@H](CC(=O)O)NC(=O)/C=C/CCCCCCCCCC(C)C)CNC(=O)[C@@H]2CCCN2C1=O	broth microdilution	VISA LIM strain 2, Mueller-Hinton broth, Mg2+ 10 mg/L	16 h, added: Ca2+ 1.0 mM		MIC	8 to 16 µg/mL (≈ 6.41 to 12.8 µM)
CCCCCCCCCCCCCC(=O)N[C@H]1C(=O)N[C@@H](CN)C(=O)N[C@@H](CO)C(=O)N[C@@H](Cc2ccc(O)cc2)C(=O)O[C@H]1C		SH1000	added: cardiolipin, molar ratio 0.5		MIC	16 µg/mL
CC(C)CCCCCCCCC/C=C/C(=O)N[C@@H](CC(=O)O)C(=O)N[C@H]1CNC(=O)[C@@H]2CCCN2C(=O)[C@H](C(C)C)NC(=O)[C@@H](CN)NC(=O)CNC(=O)[C@H](CC(=O)O)NC(=O)CNC(=O)[C@H](CC(=O)O)NC(=O)[C@H](CC(=O)O)NC(=O)[C@H]2CCCCN2C1=O	broth microdilution	MRSA USA300, Mueller-Hinton broth, Mg2+ 10 mg/L	16 h, 37 °C, added: Ca2+ 1.0 mM		MIC	8 µg/mL (≈ 6.27 µM)
OB(O)c1ccc(C(F)(F)F)s1		USA300 wild type	50 µM	relative to: untreated	growth relative to untreated	53.5% and 60.1% and 60.5% and 70.3% and 58.3% and 66.5%

A few entries again:
Compound	test	test system	conditions	how to read	measurement	value
c1ccc(CCNC2CCCc3c2[nH]c2ccc(C4CCCCC4)cc32)cc1 (centres unmarked)	broth microdilution	SG511 daptomycin-resistant			MIC	2 µg/mL (≈ 5.37 µM)
